Published values from different studies.
Every numbered part comes from another study and shows a few of its results, in no order. Positions count from the first letter of the parent shown.
Sequence of UniProt O94804 (whole entry, looked up): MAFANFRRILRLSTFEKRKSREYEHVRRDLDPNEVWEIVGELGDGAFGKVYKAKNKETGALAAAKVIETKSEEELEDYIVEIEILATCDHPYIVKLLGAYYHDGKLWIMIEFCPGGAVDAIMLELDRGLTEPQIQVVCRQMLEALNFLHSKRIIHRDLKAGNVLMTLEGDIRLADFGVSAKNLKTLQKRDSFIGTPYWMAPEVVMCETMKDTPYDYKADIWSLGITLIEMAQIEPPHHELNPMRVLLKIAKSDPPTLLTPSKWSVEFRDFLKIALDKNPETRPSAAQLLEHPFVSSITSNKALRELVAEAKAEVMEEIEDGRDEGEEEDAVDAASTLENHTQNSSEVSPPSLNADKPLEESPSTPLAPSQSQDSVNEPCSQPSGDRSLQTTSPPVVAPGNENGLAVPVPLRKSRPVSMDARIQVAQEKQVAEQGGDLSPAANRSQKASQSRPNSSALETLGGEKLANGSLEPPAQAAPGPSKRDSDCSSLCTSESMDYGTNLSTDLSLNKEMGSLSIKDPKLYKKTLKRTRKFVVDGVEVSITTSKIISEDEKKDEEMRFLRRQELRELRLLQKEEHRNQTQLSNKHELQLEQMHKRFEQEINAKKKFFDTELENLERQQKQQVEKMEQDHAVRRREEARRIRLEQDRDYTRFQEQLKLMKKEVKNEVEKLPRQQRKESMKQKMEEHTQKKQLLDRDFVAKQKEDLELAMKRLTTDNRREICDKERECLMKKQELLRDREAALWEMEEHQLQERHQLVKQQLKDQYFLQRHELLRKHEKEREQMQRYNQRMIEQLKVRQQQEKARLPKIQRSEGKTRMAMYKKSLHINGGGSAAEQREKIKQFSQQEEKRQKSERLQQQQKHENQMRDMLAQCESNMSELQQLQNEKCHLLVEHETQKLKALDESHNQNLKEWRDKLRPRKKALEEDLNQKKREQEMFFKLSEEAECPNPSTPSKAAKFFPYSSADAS
Sequence of UniProt P20794 (whole entry, looked up): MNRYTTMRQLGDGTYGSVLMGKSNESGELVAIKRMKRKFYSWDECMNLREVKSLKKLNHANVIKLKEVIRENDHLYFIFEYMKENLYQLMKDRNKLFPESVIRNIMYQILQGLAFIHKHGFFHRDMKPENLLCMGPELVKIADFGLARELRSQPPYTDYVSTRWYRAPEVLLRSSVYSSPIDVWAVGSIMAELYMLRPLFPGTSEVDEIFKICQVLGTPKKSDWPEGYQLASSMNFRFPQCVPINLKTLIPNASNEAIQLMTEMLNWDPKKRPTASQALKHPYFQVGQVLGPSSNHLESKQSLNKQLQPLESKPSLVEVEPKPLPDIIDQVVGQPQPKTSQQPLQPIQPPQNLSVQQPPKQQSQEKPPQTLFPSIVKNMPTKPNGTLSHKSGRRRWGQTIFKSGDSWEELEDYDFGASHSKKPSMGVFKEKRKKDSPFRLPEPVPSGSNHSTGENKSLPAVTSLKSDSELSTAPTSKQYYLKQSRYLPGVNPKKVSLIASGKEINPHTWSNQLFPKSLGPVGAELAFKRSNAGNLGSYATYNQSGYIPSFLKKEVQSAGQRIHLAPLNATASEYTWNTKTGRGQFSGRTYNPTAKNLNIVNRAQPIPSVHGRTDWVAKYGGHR
Sequence of UniProt P51955 (whole entry, looked up): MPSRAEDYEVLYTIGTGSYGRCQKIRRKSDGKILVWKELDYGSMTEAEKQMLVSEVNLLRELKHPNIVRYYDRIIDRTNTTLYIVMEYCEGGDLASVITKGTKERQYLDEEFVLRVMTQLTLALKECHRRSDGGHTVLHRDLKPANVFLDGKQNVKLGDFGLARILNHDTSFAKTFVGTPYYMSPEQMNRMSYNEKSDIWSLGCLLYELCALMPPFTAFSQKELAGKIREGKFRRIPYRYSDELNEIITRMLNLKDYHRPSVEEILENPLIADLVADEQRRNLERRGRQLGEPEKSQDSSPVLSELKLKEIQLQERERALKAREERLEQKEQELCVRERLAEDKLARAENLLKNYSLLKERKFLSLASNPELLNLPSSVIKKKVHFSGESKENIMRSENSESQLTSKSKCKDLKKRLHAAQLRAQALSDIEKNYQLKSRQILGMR
Sequence of UniProt P37173 (whole entry, looked up): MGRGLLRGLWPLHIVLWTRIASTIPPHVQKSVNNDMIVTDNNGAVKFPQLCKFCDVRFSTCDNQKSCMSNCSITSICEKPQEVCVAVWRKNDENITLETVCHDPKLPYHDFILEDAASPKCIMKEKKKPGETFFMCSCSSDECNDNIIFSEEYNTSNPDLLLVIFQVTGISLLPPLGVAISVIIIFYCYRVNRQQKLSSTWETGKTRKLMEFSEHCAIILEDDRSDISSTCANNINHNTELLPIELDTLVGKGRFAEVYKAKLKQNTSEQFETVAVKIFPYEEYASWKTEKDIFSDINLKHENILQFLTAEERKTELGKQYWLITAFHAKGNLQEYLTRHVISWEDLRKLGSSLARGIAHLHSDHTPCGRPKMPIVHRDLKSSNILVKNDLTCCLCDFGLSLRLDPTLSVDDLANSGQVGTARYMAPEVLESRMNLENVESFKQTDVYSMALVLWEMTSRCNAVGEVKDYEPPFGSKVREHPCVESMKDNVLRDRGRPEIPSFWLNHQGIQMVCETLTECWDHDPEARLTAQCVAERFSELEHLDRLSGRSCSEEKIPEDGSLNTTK
Sequence of UniProt P11802 (whole entry, looked up): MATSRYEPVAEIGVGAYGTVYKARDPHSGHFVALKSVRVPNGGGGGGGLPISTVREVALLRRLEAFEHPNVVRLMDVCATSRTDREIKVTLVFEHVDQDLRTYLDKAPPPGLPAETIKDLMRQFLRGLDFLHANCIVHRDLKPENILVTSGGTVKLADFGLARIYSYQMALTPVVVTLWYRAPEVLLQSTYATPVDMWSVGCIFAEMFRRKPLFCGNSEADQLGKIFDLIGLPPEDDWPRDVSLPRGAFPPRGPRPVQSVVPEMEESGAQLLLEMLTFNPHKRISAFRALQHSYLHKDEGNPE
Sequence of UniProt Q14164 (whole entry, looked up): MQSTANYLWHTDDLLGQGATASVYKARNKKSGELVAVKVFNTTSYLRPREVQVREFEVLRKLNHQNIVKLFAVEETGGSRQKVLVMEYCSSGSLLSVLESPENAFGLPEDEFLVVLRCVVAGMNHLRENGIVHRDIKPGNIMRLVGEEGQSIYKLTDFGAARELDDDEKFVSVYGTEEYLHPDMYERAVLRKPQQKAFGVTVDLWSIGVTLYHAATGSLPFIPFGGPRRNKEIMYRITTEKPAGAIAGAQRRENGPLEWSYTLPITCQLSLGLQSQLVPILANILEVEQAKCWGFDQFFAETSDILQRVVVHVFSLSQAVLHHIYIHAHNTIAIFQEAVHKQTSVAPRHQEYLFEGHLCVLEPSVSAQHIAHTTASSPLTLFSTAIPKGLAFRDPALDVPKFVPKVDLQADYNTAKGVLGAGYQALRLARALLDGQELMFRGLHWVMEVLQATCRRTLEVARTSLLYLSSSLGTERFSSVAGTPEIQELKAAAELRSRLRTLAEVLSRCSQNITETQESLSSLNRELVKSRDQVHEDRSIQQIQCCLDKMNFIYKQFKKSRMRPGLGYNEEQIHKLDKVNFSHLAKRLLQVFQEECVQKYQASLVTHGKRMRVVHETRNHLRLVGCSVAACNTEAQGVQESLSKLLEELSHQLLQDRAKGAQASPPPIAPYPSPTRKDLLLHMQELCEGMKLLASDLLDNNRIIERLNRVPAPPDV
Sequence of UniProt Q15208 (whole entry, looked up): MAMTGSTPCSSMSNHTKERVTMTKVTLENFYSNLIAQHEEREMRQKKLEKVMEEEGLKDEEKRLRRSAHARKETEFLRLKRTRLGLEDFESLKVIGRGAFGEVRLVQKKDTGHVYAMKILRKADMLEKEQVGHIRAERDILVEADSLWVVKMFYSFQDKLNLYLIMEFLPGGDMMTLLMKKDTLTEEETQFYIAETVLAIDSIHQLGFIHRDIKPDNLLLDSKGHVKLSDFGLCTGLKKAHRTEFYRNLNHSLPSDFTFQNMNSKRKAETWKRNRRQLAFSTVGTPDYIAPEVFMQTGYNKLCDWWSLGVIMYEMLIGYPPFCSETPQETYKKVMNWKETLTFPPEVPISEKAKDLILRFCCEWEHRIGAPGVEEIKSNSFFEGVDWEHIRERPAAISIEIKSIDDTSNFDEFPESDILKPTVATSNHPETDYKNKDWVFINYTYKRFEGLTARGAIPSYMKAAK
Sequence of UniProt Q99755 (whole entry, looked up): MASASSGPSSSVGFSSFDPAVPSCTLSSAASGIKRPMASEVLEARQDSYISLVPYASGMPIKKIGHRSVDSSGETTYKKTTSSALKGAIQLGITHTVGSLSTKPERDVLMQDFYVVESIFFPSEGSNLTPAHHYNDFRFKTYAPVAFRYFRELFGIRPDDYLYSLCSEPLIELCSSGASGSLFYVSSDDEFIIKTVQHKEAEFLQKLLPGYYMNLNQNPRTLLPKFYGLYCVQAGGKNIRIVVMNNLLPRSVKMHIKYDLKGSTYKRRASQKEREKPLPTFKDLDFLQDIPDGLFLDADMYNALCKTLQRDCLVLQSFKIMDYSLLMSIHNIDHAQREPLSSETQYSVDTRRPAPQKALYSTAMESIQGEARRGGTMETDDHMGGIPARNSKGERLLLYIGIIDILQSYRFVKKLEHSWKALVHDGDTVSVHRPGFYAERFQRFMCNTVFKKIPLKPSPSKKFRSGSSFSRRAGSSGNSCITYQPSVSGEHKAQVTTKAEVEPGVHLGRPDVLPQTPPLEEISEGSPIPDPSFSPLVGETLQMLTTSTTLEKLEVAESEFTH
Sequence of UniProt Q00535 (whole entry, looked up): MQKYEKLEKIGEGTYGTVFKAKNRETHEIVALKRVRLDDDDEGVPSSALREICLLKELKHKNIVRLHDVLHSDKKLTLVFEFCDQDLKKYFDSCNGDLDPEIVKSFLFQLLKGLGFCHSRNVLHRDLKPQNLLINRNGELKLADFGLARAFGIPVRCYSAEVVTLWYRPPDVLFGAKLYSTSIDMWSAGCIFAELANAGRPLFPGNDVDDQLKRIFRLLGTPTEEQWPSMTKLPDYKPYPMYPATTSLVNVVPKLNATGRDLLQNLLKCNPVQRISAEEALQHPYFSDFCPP

Sample 1
Target: ABI1, truncated, D143A, DHFR fusion (Arabidopsis thaliana)
Method: DHFR PCA, deep sequencing
Medium: yeast
Setting: methotrexate growth selection, single substitutions
With: (+)-ABA 58 µM
Relative to: wild-type fitted maximum
Reading: higher = stronger binding
Starting sequence: PYL1, truncated, DHFR fusion (Arabidopsis thaliana); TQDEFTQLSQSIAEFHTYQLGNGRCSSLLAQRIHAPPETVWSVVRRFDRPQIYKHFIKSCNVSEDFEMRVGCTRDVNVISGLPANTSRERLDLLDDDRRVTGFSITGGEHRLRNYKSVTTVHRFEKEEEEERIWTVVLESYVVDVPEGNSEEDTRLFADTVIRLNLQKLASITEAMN; partner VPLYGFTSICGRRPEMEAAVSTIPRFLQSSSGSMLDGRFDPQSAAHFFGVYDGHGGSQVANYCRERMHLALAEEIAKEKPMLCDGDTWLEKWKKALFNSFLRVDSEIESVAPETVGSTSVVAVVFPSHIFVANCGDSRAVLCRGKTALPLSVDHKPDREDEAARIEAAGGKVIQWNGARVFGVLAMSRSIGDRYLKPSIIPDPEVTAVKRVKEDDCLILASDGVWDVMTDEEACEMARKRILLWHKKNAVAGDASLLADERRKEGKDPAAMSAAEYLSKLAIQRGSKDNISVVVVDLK
For `V143A`, “relative binding score” read 55.3%.
Under “relative binding score”, `T173I` is recorded as 77.2%.
For `F47W`, “relative binding score” read 53.1%.
Under “relative binding score”, `G23H` is recorded as 83.5%.
Under “relative binding score”, `E14R` is recorded as 75%.
Under “relative binding score”, `Q10E` is recorded as 102%.
Under “relative binding score”, `S80F` is recorded as 26.9%.
For `E129R`, “relative binding score” read 88.1%.

Sample 2
Target: RNA binding protein fox-1 homolog 2, RRM domain, GST-SBP tag (RBFOX2, Homo sapiens, UniProt O43251-10, residues 100-194)
Method: RNA Bind-n-Seq
Form: RNA
Medium: in vitro
Concentration: 365 nM
Setting: natural RNA segment, single round, ends assumed
Relative to: no-protein control
Reading: higher = stronger binding
All sequences stand within: GGGAGUUCUACAGUCCGACGAUC … UGGAAUUCUCGGGUGCCAA
For `ACCCACAUUCCACUCUAGUUGGGGCUUGUGACUUAGCCCUGGACUCUGUUUCUGCAGGCAAGGGACAGCGAGGGCUGAGCAUUGGCCUGUAUAAUCUGGUCAGCUUGGAC`, “RBNS enrichment (R)” read 0.373.
Under “RBNS enrichment (R)”, `UUAGAGCACUUUGUUAAUGUUCUUCCAUUCACUCCAACAGCGUCCUCAGAAAGAGACAGAAUAAAAAAAUUGUUCCCCAUGGUACAGCUGGAAAAAUUAAGGGGAAAAGA` is recorded as 0.453.
Under “RBNS enrichment (R)”, `AAAGUACUGUAGUUUACAGGUAGGCCUUGAAAUAUCUUUUUUAGGAUCUGUUAGGAAUAAGAUUGAUAUUGUAUUGUGUGUAACCUGCACAAUGUGGAAAGCUGAUAUAC` is recorded as 1.35.
Under “RBNS enrichment (R)”, `GAGUGAAUUUUUGCCAGUCUUGUGAGCAGAUGUACCUGAUGUAUUCUCAAUGUUCCAAGAGGUUCUGGCCUUCAGGGUCACAGGCAGUAGGGGGACAGCAUAAGGUCUAU` is recorded as 0.838.
Under “RBNS enrichment (R)”, `GCCAAAGUACAGCAGGAACCCACCACCUGUUUCCCUUCCUUCUCCCAUUCUACUCCCAGUCCGGAAUGCCACGAGGACCUUAACCUUGUUUCUGGCUUUAGCUGCUAGUU` is recorded as 0.65.
For `CACUUUGUCUUACCUCAAUUGAGUAACAGAAUAUAGCUCCUGAAGGAAACACUGAUUUGCUUUCUGUUUCCCAUAUCUCACCUCUAGGAUAUGAUGGAAGAAGUGCUUGA`, “RBNS enrichment (R)” read 0.423.
Under “RBNS enrichment (R)”, `AAUUUUUUGAAUAUGCCUUAAUUUAGAAACUGAAAAAUAUCUGGUUAUAUCAUUCUGGGUGUGUUCUUACUGACACCAGGGGUCCGCUGCCCCAUGUGUCCUGGUGAGAA` is recorded as 0.823.
`CAGUGCACAGCCUGCUGUCUGCAGUCGGCCAGACCAGGCUCCUCCCCAGCACACUCCCUGUGGGAUGGCCGCUGCUCAGGACACAGUGGGACAAAGUUGGGUUGAUAGGA` — result for “RBNS enrichment (R)”: 1.24.

Sample 3
SMILES: CNCc1ccccc1-c1csc([C@H](C)Nc2nc(C)nc3cc(OC)c(OC)cc23)c1
Effect on: cell-free assay
Method: competition with immobilised ligand
Concentration: 1 µM
For PIP5K1A (Homo sapiens, UniProt Q99755): remaining binding read 92%.
CSNK2A1 (Homo sapiens, UniProt P68400) — remaining binding: 91%.
It gave 87% for remaining binding (STK38 (Homo sapiens, UniProt Q15208)).
It gave 71% for remaining binding (PIK3CA (Homo sapiens, UniProt P42336)).
For MAK (Homo sapiens, UniProt P20794): remaining binding read 97%.

Sample 4
Compound: COc1cc2ncnc(Nc3ccc(Oc4ccccc4)cc3)c2cc1OC
Effect on: enzyme activity
Action: inhibitor
Concentration: 0.5 µM
Relative to: control
The remaining activity was 104% (CAMKK2 (Homo sapiens, UniProt Q96RR4)).
It gave 113% for remaining activity (Cyclin-dependent kinase 4, with cyclin D1 (CDK4, Homo sapiens, UniProt P11802)).
For STK10 (Homo sapiens, UniProt O94804): remaining activity read 74%.
It gave 111% for remaining activity (NEK2 (Homo sapiens, UniProt P51955)).
MAPK9 (Homo sapiens, UniProt P45984) — remaining activity: 99%.
The remaining activity was 88.8% (Cyclin-dependent kinase 5, with p25 (CDK5, Homo sapiens, UniProt Q00535)).
For PRKCA (Homo sapiens, UniProt P17252): remaining activity read 101%.
The remaining activity was 137% (TGFBR2 (Homo sapiens, UniProt P37173)).
The remaining activity was 101% (IKBKE (Homo sapiens, UniProt Q14164)).
For PRKACA (Homo sapiens, UniProt P17612): remaining activity read 102%.
It gave 102% for remaining activity (STK39 (Homo sapiens, UniProt Q9UEW8)).

Excerpt of the above (sample 1):
Under “relative binding score”, `Q10E` is recorded as 102%.
For `E129R`, “relative binding score” read 88.1%.
Under “relative binding score”, `T173I` is recorded as 77.2%.
Under “relative binding score”, `S80F` is recorded as 26.9%.
